Published values of several laboratories.
Each line is one published result; not all experiments were run side by side. Several values in a cell are separate wells, animals, samples, runs or records. ± marks the error that the study gave.
UniProt Q9UHD2, sequence (whole entry, looked up): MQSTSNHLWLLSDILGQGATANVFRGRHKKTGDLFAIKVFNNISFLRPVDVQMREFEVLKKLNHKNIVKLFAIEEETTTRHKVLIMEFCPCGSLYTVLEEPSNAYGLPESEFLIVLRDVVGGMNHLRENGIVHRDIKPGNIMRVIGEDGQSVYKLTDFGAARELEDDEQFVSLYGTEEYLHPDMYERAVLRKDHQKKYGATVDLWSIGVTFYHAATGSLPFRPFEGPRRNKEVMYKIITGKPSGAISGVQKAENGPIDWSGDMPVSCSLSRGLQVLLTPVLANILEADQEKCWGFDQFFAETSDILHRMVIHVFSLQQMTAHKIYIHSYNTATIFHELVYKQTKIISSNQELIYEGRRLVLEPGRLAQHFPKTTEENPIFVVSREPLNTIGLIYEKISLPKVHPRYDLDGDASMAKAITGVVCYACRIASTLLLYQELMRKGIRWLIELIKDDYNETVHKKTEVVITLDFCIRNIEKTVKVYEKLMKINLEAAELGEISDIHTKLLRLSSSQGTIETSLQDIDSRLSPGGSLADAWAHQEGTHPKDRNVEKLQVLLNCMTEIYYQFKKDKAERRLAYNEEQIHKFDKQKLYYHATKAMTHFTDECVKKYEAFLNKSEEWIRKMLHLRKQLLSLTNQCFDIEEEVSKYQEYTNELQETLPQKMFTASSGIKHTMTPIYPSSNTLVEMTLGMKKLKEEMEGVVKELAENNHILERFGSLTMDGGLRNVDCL

Compound = CC[C@H](C)[C@H](NC(=O)CNC(=O)[C@H](CC(=O)O)NC(=O)[C@H](CO)NC(=O)[C@@H](N)Cc1c[nH]cn1)C(=O)N[C@@H](Cc1ccccc1)C(=O)N[C@H](C(=O)N[C@@H](CC(=O)O)C(=O)N[C@@H](CO)C(=O)N[C@@H](Cc1ccc(O)cc1)C(=O)N[C@@H](CO)C(=O)N[C@@H](CCCNC(=N)N)C(=O)N[C@@H](Cc1ccc(O)cc1)C(=O)N[C@@H](CCCNC(=N)N)C(=O)N[C@@H](CCCCN)C(=O)N[C@@H](CCC(N)=O)C(=O)N[C@@H](CCSC)C(=O)N[C@@H](C)C(=O)N[C@H](C(=O)N[C@@H](CCCCN)C(=O)N[C@@H](CCCCN)C(=O)N[C@@H](Cc1ccc(O)cc1)C(=O)N[C@@H](CC(C)C)C(=O)N[C@@H](C)C(=O)N[C@@H](C)C(=O)N[C@H](C(=O)N[C@@H](CC(C)C)C(=O)NCC(=O)N[C@@H](CCCCN)C(=O)N[C@@H](CCCNC(=N)N)C(=O)N[C@@H](Cc1ccc(O)cc1)C(=O)N[C@@H](CCCCN)C(=O)N[C@@H](CCC(N)=O)C(=O)N[C@@H](CCCNC(=N)N)C(=O)N[C@H](C(=O)N[C@@H](CCCCN)C(=O)N[C@@H](CC(N)=O)C(=O)N[C@@H](CCCCN)C(N)=O)C(C)C)C(C)C)C(C)C)[C@@H](C)O; tested on = BON; test = cell growth, MTT; setting = 20 h; endpoint = EC50; value = 0.01 µM
Compound = CC(C)(C)C(=O)OCOP(=O)(OCOC(=O)C(C)(C)C)C1CCCN(O)C1=O (stereo not drawn); tested on = BT-549; endpoint = log LC50; value = > -4 log M
Compound = CC(=O)NCSC[C@H](NC(=O)[C@@H]1CCCN1C(=O)[C@H](C)NC(=O)[C@@H](NC(=O)CNC(=O)[C@@H](NC(=O)[C@H](Cc1c[nH]c2ccccc12)NC(=O)[C@H](C)NC(=O)CNC(=O)[C@H](CO)NC(=O)[C@H](C)NC(=O)[C@@H]1CCCN1C(=O)[C@H](Cc1c[nH]c2ccccc12)NC(=O)[C@H](C)NC(=O)[C@H](C)NC(=O)[C@@H](N)Cc1ccc(O)cc1)[C@@H](C)O)[C@@H](C)O)C(=O)N[C@@H](CO)C(=O)N[C@@H](C)C(=O)NCC(=O)N[C@H](C(=O)NCCOCCOCCOCCOCCOCCOCCOCCOCCOCCOCCOCCOCCC(=O)N[C@@H](CS)C(N)=O)[C@@H](C)O; tested on = H1993; test = phage binding; setting = 10 min, 37 °C; how to read = reference: control phage; endpoint = selectivity ratio; value = 100 ± 16
Compound = C#CCN1C(=O)C(CC#C)(C(=O)OCC)Oc2ccccc21 (stereo not drawn); tested on = L02; test = cell growth or viability, CCK-8; setting = 0.78 µM, 72 h; endpoint = inhibition; value = 0%
Compound = COc1ccccc1-c1ccncc1C(=O)Nc1nnc(OCc2ccc(Cl)cc2)s1; tested on = RPE-1 BRCA1 WT parental; setting = 1 µM, run 1; how to read = reference: untreated; endpoint = colony survival; value = 83.3%
Compound = CC(C)C[C@H](NC(=O)[C@H](CC(=O)O)NC(=O)CNC(=O)[C@@H](N)CCCNC(=N)N)C(=O)N[C@@H](C)C(=O)N[C@H](C(=O)N[C@@H](CC(C)C)C(=O)N[C@@H](CCCNC(=N)N)C(=O)N[C@@H](CCC(N)=O)C(=O)N[C@@H](CC(C)C)C(=O)N[C@@H](C)C(=O)N[C@@H](CCC(N)=O)C(=O)N[C@@H](CCC(=O)O)C(=O)N[C@@H](CC(=O)O)C(=O)NCC(=O)N[C@H](C(=O)N[C@H](C(=O)NCC(=O)N[C@H](C(=O)N[C@@H](CCCNC(=N)N)C(=O)NCCOCCOCCOCCOCCOCCOCCOCCOCCOCCOCCOCCOCCC(=O)N[C@@H](CS)C(N)=O)C(C)C)C(C)C)C(C)C)[C@@H](C)O; tested on = Calu-1 lung mucoepidermoid carcinoma; test = cell binding, phage binding, refers to: output/input phage; setting = 10 min, 37 °C; how to read = reference: control phage; endpoint = selectivity ratio; value = 0.53 ± 0.14
Compound = NC(=O)N/N=C/c1ccc(OCc2cccc(F)c2)cc1; tested on = IMR-32; test = refers to: GPX3; setting = 100 µg/mL, 24 h; how to read = higher = more activity; endpoint = glutathione peroxidase activity (OD450); value = 0.035 a.u.
Compound = CC(C)=CCc1c(O)cc2c(c1O)C(=O)CC(c1ccc(O)cc1)O2 (stereo not drawn); tested on = HeLa; test = cell growth or viability, MTT; setting = 1.563 µM, 48 h; endpoint = inhibition; value = 2.4%
Compound = CN(C)[C@H]1C[C@@]23CC[C@@]4(O2)C(=CC[C@]2(C)[C@@H](c5ccc6ccncc6c5)CC[C@H]24)C=C3[C@@H](O)[C@@H]1O; tested on = TBK1 (Homo sapiens, UniProt Q9UHD2); test = ATP probe labelling, inhibitor, KiNativ profiling; setting = 1 µM; endpoint = inhibition; value = -3%
Compound = CC[C@H](C)[C@H](NC(=O)CNC(=O)[C@H](Cc1ccc(O)cc1)NC(=O)[C@H](CO)NC(=O)[C@H](Cc1ccc(O)cc1)NC(=O)[C@@H](NC(=O)[C@H](CC(=O)O)NC(=O)[C@H](CO)NC(=O)[C@H](CCC(N)=O)NC(=O)[C@H](Cc1ccccc1)NC(=O)[C@H](CO)NC(=O)[C@H](Cc1ccccc1)NC(=O)[C@@H]1CCCN1C(=O)[C@H](CC(N)=O)NC(=O)[C@H](CC(N)=O)NC(=O)[C@H](CC(=O)O)NC(=O)[C@H](CCC(N)=O)NC(=O)[C@@H]1CCCN1C(=O)[C@H](CCCNC(=N)N)NC(=O)[C@H](CCCNC(=N)N)NC(=O)[C@H](CCCNC(=N)N)NC(=O)[C@H](CCC(N)=O)NC(=O)[C@H](CCCNC(=N)N)NC(=O)[C@H](CCCNC(=N)N)NC(=O)[C@H](CCCCN)NC(=O)[C@H](CCCCN)NC(=O)[C@H](CCCNC(=N)N)NC(=O)CN)C(C)C)C(=O)N[C@H](C(=O)N[C@@H](CC(C)C)C(N)=O)C(C)C; tested on = MCF7; test = immunoblot densitometry, refers to: phospho-c-Raf Ser338; setting = 10 µM, 48 h, unit not given; how to read = reference: 0 µM; endpoint = phospho-c-Raf level; value = 0.404 and 0.415
Compound = COc1ccccc1-c1n[nH]c2nc(NC3CCN(C(=O)Cc4ccc(F)cc4F)CC3)ncc12; test = bead binding, competition bead pull-down, refers to: LINJ.29.1360; test system = Leishmania donovani extract; setting = 10 µM; how to read = reference: vehicle; endpoint = relative abundance; value = 0.93
Compound = Cc1cc(C(=O)Nc2nc3cccc(C)c3n2[C@H]2CCCCN(C(=O)/C=C/CN(C)C)C2)ccn1; tested on = Trypanosoma brucei; test system = CLK1 C215S overexpressing; setting = 5 x EC50; endpoint = survival; value = 105% and 102%
Compound = COc1ccccc1-c1n[nH]c2nc(N[C@H]3CC[C@H](NS(=O)(=O)CC(C)C)CC3)ncc12; tested on = LINJ.11.1000; test = bead competition pull-down; test system = Leishmania extract; setting = 5 µM; how to read = reference: vehicle; endpoint = relative captured amount; value = 0.87
Compound = C=CCN1C(=O)C(CC=C)(C(=O)OCC)Oc2cc(F)ccc21 (stereo not drawn); tested on = L02; test = cell growth or viability, CCK-8; setting = 1.56 µM, 72 h; endpoint = inhibition; value = 0.22%
Compound = O=C1NC2(CC2)COc2ncc(F)cc2[C@H]2COCCN2c2ccn3ncc1c3n2; test system = Sprague-Dawley rat, female, serum; setting = oral, 2.5 mg/kg/day, 4 weeks daily, end of treatment; endpoint = total cholesterol; value = 2 ± 0.36 mmol/L

For quick reference, copied from above:
Compound = COc1ccccc1-c1n[nH]c2nc(N[C@H]3CC[C@H](NS(=O)(=O)CC(C)C)CC3)ncc12; tested on = LINJ.11.1000; test = bead competition pull-down; test system = Leishmania extract; setting = 5 µM; how to read = reference: vehicle; endpoint = relative captured amount; value = 0.87
Compound = C=CCN1C(=O)C(CC=C)(C(=O)OCC)Oc2cc(F)ccc21 (stereo not drawn); tested on = L02; test = cell growth or viability, CCK-8; setting = 1.56 µM, 72 h; endpoint = inhibition; value = 0.22%
